Measured values collected from several papers.
Several values in a cell are separate wells, animals, samples, runs or records. ± gives the spread as reported.
PIH1D1: PIH1D1 1-180 (Homo sapiens, UniProt Q9NWS0)
Chain of UniProt Q9NWS0 (whole entry, looked up): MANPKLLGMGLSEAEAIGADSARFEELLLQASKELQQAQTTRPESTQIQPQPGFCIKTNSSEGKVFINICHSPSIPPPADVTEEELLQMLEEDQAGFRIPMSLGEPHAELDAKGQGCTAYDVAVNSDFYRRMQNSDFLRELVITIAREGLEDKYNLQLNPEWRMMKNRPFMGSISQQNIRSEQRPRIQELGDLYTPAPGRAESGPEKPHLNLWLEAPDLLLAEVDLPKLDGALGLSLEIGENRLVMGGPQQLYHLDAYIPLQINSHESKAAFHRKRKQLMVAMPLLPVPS
U2AF2: U2AF2 148-342 (Homo sapiens, UniProt P26368)
Chain of UniProt P26368 (whole entry, looked up): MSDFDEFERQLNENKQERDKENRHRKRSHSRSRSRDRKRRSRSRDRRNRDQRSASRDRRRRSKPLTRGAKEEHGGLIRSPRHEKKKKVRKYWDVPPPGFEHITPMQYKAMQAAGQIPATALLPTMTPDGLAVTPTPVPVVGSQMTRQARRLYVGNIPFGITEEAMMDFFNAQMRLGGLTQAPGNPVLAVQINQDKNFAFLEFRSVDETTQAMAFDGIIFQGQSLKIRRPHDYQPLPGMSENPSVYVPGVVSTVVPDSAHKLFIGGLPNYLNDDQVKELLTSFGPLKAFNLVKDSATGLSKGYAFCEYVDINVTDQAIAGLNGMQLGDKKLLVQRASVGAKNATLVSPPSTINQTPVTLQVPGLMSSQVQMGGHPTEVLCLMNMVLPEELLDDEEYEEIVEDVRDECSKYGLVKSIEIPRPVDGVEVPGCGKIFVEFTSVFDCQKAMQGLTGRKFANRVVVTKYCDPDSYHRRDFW
SNX27 fragment: SNX27 fragment (Rattus norvegicus)
T1: Tab1 residues 384-412 (Mus musculus); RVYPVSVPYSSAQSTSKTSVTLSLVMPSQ
B1: human zyxin; sequence looked up; chain AAPRPSPAISVSVSAPAFYAPQKKFGPVVAPKPKVNPFRPGDSEPPPAPGAQRAQMGRVGEIPPPPPEDFPLPPPPLAGDGDDAEGALGGAFPPPPPPIEESFPPAPLEEEIFPSPPPPPEEEGGPEAPIPPPPQPREKVSSIDLEIDSLSSLLDDMTKNDPFKARVSSGYVPPPVATPFSSKSSTKPAAGGTAPLPPWKSPSSSQPLPQVPAPAQSQTQFHVQPQPQPKPQVQLHVQSQTQPVSLANTQPRGPPASSPAPAPKFSPVTPKFTPVASKFSPGAPGGSGSQPNQKLGHPEALSAGTGSPQPPSFTYAQQREKPRVQEKQHPVPPPAQNQNQVRSPGAPGPLTLKEVEELEQLTQQLMQDMEHPQRQNVAVNELCGRCHQPLARAQPAVRALGQLFHIACFTCHQCAQQLQGQQFYSLEGAPYCEGCYTDTLEKCNTCGEPITDRMLRATGKAYHPHCFTCVVCARPLEGTSFIVDQANRPHCVPDYHKQYAPRCSVCSEPIMPEPGRDETVRVVALDKNFHMKCYKCEDCGKPLSIEADDNGCFPLDGHVLCRKCHTARAQT
B2: SEPTIN7 (Homo sapiens, UniProt Q16181); sequence looked up; chain MSVSARSAAAEERSVNSSTMVAQQKNLEGYVGFANLPNQVYRKSVKRGFEFTLMVVGESGLGKSTLINSLFLTDLYSPEYPGPSHRIKKTVQVEQSKVLIKEGGVQLLLTIVDTPGFGDAVDNSNCWQPVIDYIDSKFEDYLNAESRVNRRQMPDNRVQCCLYFIAPSGHGLKPLDIEFMKRLHEKVNIIPLIAKADTLTPEECQQFKKQIMKEIQEHKIKIYEFPETDDEEENKLVKKIKDRLPLAVVGSNTIIEVNGKRVRGRQYPWGVAEVENGEHCDFTILRNMLIRTHMQDLKDVTNNVHYENYRSRKLAAVTYNGVDNNKNKGQLTKSPLAQMEEERREHVAKMKKMEMEMEQVFEMKVKEKVQKLKDSEAELQRRHEQMKKNLEAQHKELEEKRRQFEDEKANWEAQQRILEQQNSSRTLEKNKKKGKIF
B3: Mapk14 I275G (Mus musculus, UniProt P47811); chain MSQERPTFYRQELNKTIWEVPERYQNLSPVGSGAYGSVCAAFDTKTGHRVAVKKLSRPFQSIIHAKRTYRELRLLKHMKHENVIGLLDVFTPARSLEEFNDVYLVTHLMGADLNNIVKCQKLTDDHVQFLIYQILRGLKYIHSADIIHRDLKPSNLAVNEDCELKILDFGLARHTDDEMTGYVATRWYRAPEIMLNWMHYNQTVDIWSVGCIMAELLTGRTLFPGTDHIDQLKLILRLVGTPGAELLKKISSESARNYIQSLAQMPKMNFANVFGGANPLAVDLLEKMLVLDSDKRITAAQALAHAYFAQYHDPDDEPVADPYDQSFESRDLLIDEWKSLTYDEVISFVPPPLDQEEMES
B4: ING1 163-234 Y180A (Arabidopsis thaliana, UniProt Q9LIQ6); sequence looked up; chain TSSNMDLDLPVDPNEPTACICNQVSFGEMVACDNNACKIEWFHFGCVGLKEQPKGKWYCPECATVKKSRKGR
B5: human ADP/ATP translocase 2; sequence looked up; chain MTDAAVSFAKDFLAGGVAAAISKTAVAPIERVKLLLQVQHASKQITADKQYKGIIDCVVRIPKEQGVLSFWRGNLANVIRYFPTQALNFAFKDKYKQIFLGGVDKRTQFWLYFAGNLASGGAAGATSLCFVYPLDFARTRLAADVGKAGAEREFRGLGDCLVKIYKSDGIKGLYQGFNVSVQGIIIYRAAYFGIYDTAKGMLPDPKNTHIVISWMIAQTVTAVAGLTSYPFDTVRRRMMMQSGRKGTDIMYTGTLDCWRKIARDEGGKAFFKGAWSNVLRGMGGAFVLVLYDEIKKYT
B6: ING1 163-234 E202A (Arabidopsis thaliana, UniProt Q9LIQ6); sequence looked up; chain TSSNMDLDLPVDPNEPTYCICNQVSFGEMVACDNNACKIAWFHFGCVGLKEQPKGKWYCPECATVKKSRKGR
B7: ING2 189-262 M219A (Arabidopsis thaliana, UniProt B3H615); sequence looked up; chain NRKDLMPIEEQPIDPNEPTYCVCHQVSFGDAIACDNENCQGGEWFHYTCVGLTPETRFKGKWYCPTCRLLPQSH
B8: BAK1 22-186 G126R (Homo sapiens, UniProt Q16611); chain ASEEQVAQDTEEVFRSYVFYRHQQEQEAEGVAAPADPEMVTLPLQPSSTMGQVGRQLAIIGDDINRRYDSEFQTMLQHLQPTAENAYEYFTKIATSLFESGINWRRVVALLGFGYRLALHVYQHGLTGFLGQVTRFVVDFMLHHCIARWIAQRGGWVAALNLGNG
B9: SSR1 mature protein (Canis lupus familiaris, UniProt P16967); sequence looked up; chain GPGGSLVAAQDLTEDEETVEDSIIEDEDDEAEVEEDEPTDLAEDKEEEDVSGEPEASPSADTTILFVKGEDFPANNIVKFLVGFTNKGTEDFIVESLDASFRYPQDYQFYIQNFTALPLNTVVPPQRQATFEYSFIPAEPMGGRPFGLVINLNYKDLNGNVFQDAVFNQTVTIIEREDGLDGETIFMYMFLAGLGLLVVVGLHQLLESRKRKRPIQKVEMGTSSQNDVDMSWIPQETLNQINKASPRRLPRKRAQKRSVGSDE
Chain of UniProt P20936 (whole entry, unmodified, looked up): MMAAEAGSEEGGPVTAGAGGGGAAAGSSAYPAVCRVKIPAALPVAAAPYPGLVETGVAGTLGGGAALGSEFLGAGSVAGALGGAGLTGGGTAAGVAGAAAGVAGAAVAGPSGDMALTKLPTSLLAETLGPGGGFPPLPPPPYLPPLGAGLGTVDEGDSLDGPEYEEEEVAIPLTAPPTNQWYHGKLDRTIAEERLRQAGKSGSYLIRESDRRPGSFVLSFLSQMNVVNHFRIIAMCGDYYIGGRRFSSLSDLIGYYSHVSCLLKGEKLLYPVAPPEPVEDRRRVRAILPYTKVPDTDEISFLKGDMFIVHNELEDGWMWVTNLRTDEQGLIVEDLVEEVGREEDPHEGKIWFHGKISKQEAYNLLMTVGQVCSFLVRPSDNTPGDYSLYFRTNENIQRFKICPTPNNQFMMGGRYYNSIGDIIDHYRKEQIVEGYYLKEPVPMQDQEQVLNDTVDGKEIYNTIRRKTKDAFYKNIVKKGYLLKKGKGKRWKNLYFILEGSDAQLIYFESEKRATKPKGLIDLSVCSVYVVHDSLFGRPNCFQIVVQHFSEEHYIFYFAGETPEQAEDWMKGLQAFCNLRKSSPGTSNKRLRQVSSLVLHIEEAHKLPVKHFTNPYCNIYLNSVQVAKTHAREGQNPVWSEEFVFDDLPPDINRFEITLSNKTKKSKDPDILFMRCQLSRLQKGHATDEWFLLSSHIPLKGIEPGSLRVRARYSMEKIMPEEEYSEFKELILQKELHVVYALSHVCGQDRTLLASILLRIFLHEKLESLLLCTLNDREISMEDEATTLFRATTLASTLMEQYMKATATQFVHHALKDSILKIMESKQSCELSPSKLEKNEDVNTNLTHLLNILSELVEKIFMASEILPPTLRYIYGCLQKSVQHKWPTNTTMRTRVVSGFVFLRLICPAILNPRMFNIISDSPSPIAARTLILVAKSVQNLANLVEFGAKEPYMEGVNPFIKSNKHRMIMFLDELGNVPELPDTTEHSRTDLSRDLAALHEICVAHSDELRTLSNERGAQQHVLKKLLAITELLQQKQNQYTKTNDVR
Chain of UniProt Q9NVR5 (whole entry, looked up): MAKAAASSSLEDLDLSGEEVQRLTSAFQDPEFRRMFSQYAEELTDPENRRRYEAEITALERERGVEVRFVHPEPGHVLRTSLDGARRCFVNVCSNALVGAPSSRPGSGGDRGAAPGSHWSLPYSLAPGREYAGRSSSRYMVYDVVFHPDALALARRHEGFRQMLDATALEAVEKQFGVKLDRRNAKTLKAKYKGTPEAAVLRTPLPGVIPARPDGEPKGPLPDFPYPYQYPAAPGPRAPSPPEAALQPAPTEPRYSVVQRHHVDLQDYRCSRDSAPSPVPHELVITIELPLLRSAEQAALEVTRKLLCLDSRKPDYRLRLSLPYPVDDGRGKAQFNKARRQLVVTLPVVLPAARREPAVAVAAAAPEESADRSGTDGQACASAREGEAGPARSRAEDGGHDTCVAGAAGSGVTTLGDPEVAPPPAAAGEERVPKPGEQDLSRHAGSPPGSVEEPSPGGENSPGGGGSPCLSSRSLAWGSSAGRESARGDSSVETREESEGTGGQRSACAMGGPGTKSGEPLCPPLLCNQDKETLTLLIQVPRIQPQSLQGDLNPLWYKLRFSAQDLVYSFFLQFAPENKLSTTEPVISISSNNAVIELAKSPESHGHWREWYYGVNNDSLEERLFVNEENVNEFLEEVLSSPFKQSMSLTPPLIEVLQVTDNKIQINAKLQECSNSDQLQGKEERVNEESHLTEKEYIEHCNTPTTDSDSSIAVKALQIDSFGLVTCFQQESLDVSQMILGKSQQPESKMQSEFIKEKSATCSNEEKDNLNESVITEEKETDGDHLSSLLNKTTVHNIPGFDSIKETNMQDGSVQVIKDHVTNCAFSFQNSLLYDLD
Chain of UniProt O95619 (whole entry, looked up): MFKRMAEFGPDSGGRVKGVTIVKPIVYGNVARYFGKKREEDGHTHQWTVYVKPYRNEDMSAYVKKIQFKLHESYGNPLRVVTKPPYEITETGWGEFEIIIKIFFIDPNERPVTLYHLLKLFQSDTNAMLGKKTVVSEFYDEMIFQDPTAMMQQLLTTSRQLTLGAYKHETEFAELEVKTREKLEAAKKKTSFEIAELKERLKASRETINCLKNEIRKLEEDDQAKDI
Chain of UniProt P23438 (whole entry, looked up): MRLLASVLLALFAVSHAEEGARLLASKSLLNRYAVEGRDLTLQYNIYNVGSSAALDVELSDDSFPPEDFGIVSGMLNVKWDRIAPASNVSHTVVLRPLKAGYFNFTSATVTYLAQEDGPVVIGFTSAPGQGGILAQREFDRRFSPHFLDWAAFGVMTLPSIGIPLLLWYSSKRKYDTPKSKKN
Chain of UniProt P29055 (whole entry, looked up): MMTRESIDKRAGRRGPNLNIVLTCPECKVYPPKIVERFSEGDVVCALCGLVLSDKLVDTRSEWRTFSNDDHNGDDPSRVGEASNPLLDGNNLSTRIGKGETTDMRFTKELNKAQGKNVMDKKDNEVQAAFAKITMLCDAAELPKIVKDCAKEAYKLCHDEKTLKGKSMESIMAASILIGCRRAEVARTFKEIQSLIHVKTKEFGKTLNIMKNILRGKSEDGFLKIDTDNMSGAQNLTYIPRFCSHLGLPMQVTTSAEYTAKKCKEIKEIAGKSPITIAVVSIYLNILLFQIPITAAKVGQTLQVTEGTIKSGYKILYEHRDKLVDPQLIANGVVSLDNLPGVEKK
Chain of UniProt Q9SUG6 (whole entry, looked up): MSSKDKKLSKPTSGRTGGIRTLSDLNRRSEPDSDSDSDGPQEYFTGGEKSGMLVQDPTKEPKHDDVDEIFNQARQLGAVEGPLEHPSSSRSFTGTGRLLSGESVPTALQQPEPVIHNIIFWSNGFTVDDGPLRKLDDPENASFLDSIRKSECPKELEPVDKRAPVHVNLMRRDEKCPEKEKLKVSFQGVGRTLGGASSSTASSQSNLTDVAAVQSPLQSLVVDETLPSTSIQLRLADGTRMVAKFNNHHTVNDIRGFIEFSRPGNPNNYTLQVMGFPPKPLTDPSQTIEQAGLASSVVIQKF
Chain of UniProt Q9HDC5 (whole entry, looked up): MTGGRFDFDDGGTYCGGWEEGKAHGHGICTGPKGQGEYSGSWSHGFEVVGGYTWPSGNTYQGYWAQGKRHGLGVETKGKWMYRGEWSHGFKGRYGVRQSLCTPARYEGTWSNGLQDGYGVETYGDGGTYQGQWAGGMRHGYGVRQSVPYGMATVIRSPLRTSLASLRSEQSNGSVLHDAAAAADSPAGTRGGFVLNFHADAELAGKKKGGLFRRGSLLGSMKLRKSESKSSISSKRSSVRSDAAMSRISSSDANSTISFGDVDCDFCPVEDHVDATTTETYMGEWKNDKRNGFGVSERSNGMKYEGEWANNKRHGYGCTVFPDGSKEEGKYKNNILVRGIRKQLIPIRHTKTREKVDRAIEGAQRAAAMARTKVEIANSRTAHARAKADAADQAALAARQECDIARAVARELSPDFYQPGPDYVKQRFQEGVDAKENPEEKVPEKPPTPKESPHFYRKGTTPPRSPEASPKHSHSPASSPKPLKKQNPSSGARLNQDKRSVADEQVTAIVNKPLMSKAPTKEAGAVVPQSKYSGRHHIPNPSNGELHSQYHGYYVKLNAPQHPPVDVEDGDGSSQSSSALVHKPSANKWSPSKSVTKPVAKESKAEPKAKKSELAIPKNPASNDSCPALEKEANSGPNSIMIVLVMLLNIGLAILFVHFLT
Chain of UniProt Q9ZU93 (whole entry, looked up): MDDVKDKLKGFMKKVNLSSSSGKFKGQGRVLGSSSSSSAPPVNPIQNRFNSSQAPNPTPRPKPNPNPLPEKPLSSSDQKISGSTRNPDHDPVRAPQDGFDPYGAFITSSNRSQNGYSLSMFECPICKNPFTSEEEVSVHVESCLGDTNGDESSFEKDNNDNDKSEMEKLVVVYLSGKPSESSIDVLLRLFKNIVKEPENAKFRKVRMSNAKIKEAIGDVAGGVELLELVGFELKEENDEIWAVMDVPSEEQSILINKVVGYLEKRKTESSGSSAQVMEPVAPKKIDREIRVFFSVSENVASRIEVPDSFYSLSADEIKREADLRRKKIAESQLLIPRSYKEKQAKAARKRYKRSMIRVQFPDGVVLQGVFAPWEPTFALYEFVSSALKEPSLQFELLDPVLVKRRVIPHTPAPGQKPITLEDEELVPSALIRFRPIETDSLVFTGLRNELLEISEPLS

PUX2 (Arabidopsis thaliana, UniProt Q9ZU93) — molecule per partner (UBQ10 mature (Arabidopsis thaliana, UniProt Q8H159); ITC; 25 °C): 0.91 ± 0.1
RPNESDSDDLDDY (ECD 499-510 (Homo sapiens); pS505) — molecule per partner (PIH1D1; ITC; peptide): 0.7
PRKN full length, unphosphorylated (Homo sapiens, UniProt O60260) — molecule per partner (RHOT1 181-579 (Homo sapiens, UniProt Q8IXI2); cross-linking): 1
B1 (human zyxin) — log2 fold change (CYB5R4 knockout human cells; PP4 interaction, 3xFLAG-PP4C IP-MS; concentration not given; relative to: CYB5R4 KO over parental): -0.56
ARTKQTARKSTG (histone H3 peptide 1-12; K4me1) — molecule per partner (Ehd3 417-547 (Oryza sativa, UniProt Q6ZJM9); ITC; peptide): 1.1
B2 (SEPTIN7) — molecule per partner (SEPTIN6 (Homo sapiens, UniProt Q14141); co-sedimentation): 1
YAGSDSDLDSDDEFVPY (TELO2 483-497 (Homo sapiens); pS491) — molecule per partner (PIH1D1; ITC; peptide): 0.8
GKAPRKQLAT (histone H3 peptide 14-23 (UniProt P68431); K18ac; sequence looked up) — molecule per partner (YEATS4 19-159 (Homo sapiens, UniProt O95619); ITC; peptide): 1
ASCC3 C-degron — molecule per partner (APPBP2/ELOB/ELOC (Homo sapiens); ITC): 0.74
B3 (Mapk14 I275G) — molecule per partner (T1, Tab1 residues 384-412 (Mus musculus); ITC): 0.8
ING1 PHD finger (Arabidopsis thaliana) — molecule per partner (H3 residues 1-10, K4me2; ITC): 1.02 ± 0.01
DPSDYAEPMDAVVKPRNEEENIYSVPHDS (ARHGAP35 residues 1083-1111; pY1087/pY1105, N-acetyl, C-amide) — molecule per partner (RASA1 174-444 C236S/C261S/C372S/C402S/R194C (Homo sapiens, UniProt P20936); ITC; peptide): 0.972 and 1.04 and 0.981 and 0.897
B4 (ING1 163-234 Y180A) — molecule per partner (histone H3 1-10, K4me3; ITC): 1.12 ± 0.01
GCUUUAUUU (ssRNA) — Kd (U2AF2; sequencing of bound RNA; RNA; motif only): 5880 nM
GRIN2A fragment S1459A (sequence not shown) — molecule per partner (SNX27 fragment; ITC): 1.1
EERIFRRTGGLFGQVD (CACNA1S residues 1594-1609 (Oryctolagus cuniculus)) — molecule per partner (JPH1 1-442 (Homo sapiens, UniProt Q9HDC5); ITC; peptide): 0.9 ± 0.1
B5 (human ADP/ATP translocase 2) — log2 fold change (PP6C (human); co-immunoprecipitation, IP-MS; CYB5R4 knockout cells; concentration not given; relative to: CYB5R4 knockout over parental): -0.32
ING2 PHD finger (Arabidopsis thaliana) — molecule per partner (H3 residues 1-10, K4me1; ITC): 0.86 ± 0.03
GRIN2A fragment S1459E (sequence not shown) — molecule per partner (SNX27 fragment; ITC): 0.9
DLDSDDEY (TELO2 488-494 (Homo sapiens); pS491) — molecule per partner (DNAAF2 73-197 (Homo sapiens, UniProt Q9NVR5); ITC; peptide): 0.6
TERLVLRLNRKKKKVSWKDGTVDNE (INH3 27-51 (Arabidopsis thaliana, UniProt Q8S8F7)) — molecule per partner (PUX3 (Arabidopsis thaliana, UniProt Q9SUG6); ITC; peptide): 1.2 ± 0.1
TCCTGAAGGGGAGCCTATAAAAGGTCCTATCGTCGTCAAGTCAATCGGTCC (dsDNA; 5'-amino-C6 primer) — Kd (SUA7 full length assumed (Saccharomyces cerevisiae, UniProt P29055); array; double-stranded DNA, one strand shown; TFIIB alone): 3.22 ± 0.55 nM
B6 (ING1 163-234 E202A) — molecule per partner (histone H3 1-10, K4me3; ITC): 1.02
human ME2 E59N — Hill coefficient (enzyme activity, NADH absorbance; without fumarate, with: L-malate varied): 1 ± 0.07
B7 (ING2 189-262 M219A) — molecule per partner (histone H3 1-10, K4me3; ITC): 0.97 ± 0.11
B8 (BAK1 22-186 G126R) — molecule per partner (MCL1 lacking N-terminus and transmembrane (Homo sapiens); SEC-MALS): 1
B9 (SSR1 mature protein) — molecule per partner (SSR2 mature, two N-linked glycans (Canis lupus familiaris, UniProt P23438); UV absorption of separated subunits): 1 molar ratio
UAUUUUGGC (ssRNA) — Kd (U2AF2; sequencing of bound RNA; RNA; motif only): 1150 nM

Some of these lines once more:
ARTKQTARKSTG (histone H3 peptide 1-12; K4me1) — molecule per partner (Ehd3 417-547 (Oryza sativa, UniProt Q6ZJM9); ITC; peptide): 1.1
human ME2 E59N — Hill coefficient (enzyme activity, NADH absorbance; without fumarate, with: L-malate varied): 1 ± 0.07
UAUUUUGGC (ssRNA) — Kd (U2AF2; sequencing of bound RNA; RNA; motif only): 1150 nM
TERLVLRLNRKKKKVSWKDGTVDNE (INH3 27-51 (Arabidopsis thaliana, UniProt Q8S8F7)) — molecule per partner (PUX3 (Arabidopsis thaliana, UniProt Q9SUG6); ITC; peptide): 1.2 ± 0.1
